Published values gathered from unrelated publications.
Each line is one published result; not all experiments were run side by side. Values joined by “and” are separate records of one study, mostly repeats; a detail may differ. Numbers after ± are the reported error.

`CC[C@H](C)[C@H](NC(=O)CNC(=O)[C@H](Cc1ccc(O)cc1)NC(=O)[C@H](CO)NC(=O)[C@H](Cc1ccc(O)cc1)NC(=O)[C@@H](NC(=O)[C@H](CC(=O)O)NC(=O)[C@H](CO)NC(=O)[C@H](CCC(N)=O)NC(=O)[C@H](Cc1ccccc1)NC(=O)[C@H](CO)NC(=O)[C@H](Cc1ccccc1)NC(=O)[C@@H]1CCCN1C(=O)[C@H](CC(N)=O)NC(=O)[C@H](CC(N)=O)NC(=O)[C@H](CC(=O)O)NC(=O)[C@H](CCC(N)=O)NC(=O)[C@@H]1CCCN1C(=O)[C@H](CCCNC(=N)N)NC(=O)[C@H](CCCNC(=N)N)NC(=O)[C@H](CCCNC(=N)N)NC(=O)[C@H](CCC(N)=O)NC(=O)[C@H](CCCNC(=N)N)NC(=O)[C@H](CCCNC(=N)N)NC(=O)[C@H](CCCCN)NC(=O)[C@H](CCCCN)NC(=O)[C@H](CCCNC(=N)N)NC(=O)CN)C(C)C)C(=O)N[C@H](C(=O)N[C@@H](CC(C)C)C(N)=O)C(C)C` gave a phospho-c-Raf level of 0.902 and 0.942 (MCF7; immunoblot densitometry, item: phospho-c-Raf Ser338; 1 µM, 48 h, unit not given; baseline: 0 µM).
`COc1ccccc1-c1ccncc1C(=O)Nc1nnc(OCc2ccc(Cl)cc2)s1` has a colony survival of 94.4% (RPE-1 BRCA1 WT parental; 0.125 µM, run 1; baseline: untreated).
`C#CCN1C(=O)C(CC#C)(C(=O)OCC)Oc2ccccc21` (stereo not shown) has an inhibition of 0.27% (HaCaT; cell growth or viability, CCK-8; 1.56 µM, 72 h).
`CC(C)CC(O)(CC(C)C)c1cn(C(=O)N2CCCC2)nn1` has a protein level of 0.97 (mouse T-cells; SILAC proteomics, item: PTPN18; 1 nM, 6 h, unit not given; baseline: DMSO).
`C=CCN1C(=O)C(CC=C)(C(=O)OCC)Oc2cc(F)ccc21` (stereo not shown) gave an inhibition of 0.12% (L02; cell growth or viability, CCK-8; 6.25 µM, 72 h).
`CC(C)(C)C(=O)OCOP(=O)(OCOC(=O)C(C)(C)C)C1CCCN(O)C1=O` (stereo not shown) gave a CC50 of greater than 100 µM (HT-29).
With `CC(C)C[C@H](NC(=O)[C@H](CC(=O)O)NC(=O)CNC(=O)[C@@H](N)CCCNC(=N)N)C(=O)N[C@@H](C)C(=O)N[C@H](C(=O)N[C@@H](CC(C)C)C(=O)N[C@@H](CCCNC(=N)N)C(=O)N[C@@H](CCC(N)=O)C(=O)N[C@@H](CC(C)C)C(=O)N[C@@H](C)C(=O)N[C@@H](CCC(N)=O)C(=O)N[C@@H](CCC(=O)O)C(=O)N[C@@H](CC(=O)O)C(=O)NCC(=O)N[C@H](C(=O)N[C@H](C(=O)NCC(=O)N[C@H](C(=O)N[C@@H](CCCNC(=N)N)C(=O)NCCOCCOCCOCCOCCOCCOCCOCCOCCOCCOCCOCCOCCC(=O)N[C@@H](CS)C(N)=O)C(C)C)C(C)C)C(C)C)[C@@H](C)O` the selectivity ratio was 300 ± 1.8 (H2009; phage binding; 10 min, 37 °C; baseline: control phage).
Under “CD71 fluorescence intensity”, `O=C(O)c1ccc(-c2nc(-c3ccccc3Cl)c3sccn23)cc1` is recorded as 1 (K562; erythroid differentiation, flow cytometry; 0.01 mM, 24 h, unit not given; baseline: untreated).
For `CC(=O)NCSC[C@H](NC(=O)[C@@H]1CCCN1C(=O)[C@H](C)NC(=O)[C@@H](NC(=O)CNC(=O)[C@@H](NC(=O)[C@H](Cc1c[nH]c2ccccc12)NC(=O)[C@H](C)NC(=O)CNC(=O)[C@H](CO)NC(=O)[C@H](C)NC(=O)[C@@H]1CCCN1C(=O)[C@H](Cc1c[nH]c2ccccc12)NC(=O)[C@H](C)NC(=O)[C@H](C)NC(=O)[C@@H](N)Cc1ccc(O)cc1)[C@@H](C)O)[C@@H](C)O)C(=O)N[C@@H](CO)C(=O)N[C@@H](C)C(=O)NCC(=O)N[C@H](C(=O)NCCOCCOCCOCCOCCOCCOCCOCCOCCOCCOCCOCCOCCC(=O)N[C@@H](CS)C(N)=O)[C@@H](C)O`, the selectivity ratio was 35 ± 6.9 (HCC1171 lung carcinoma; cell binding, phage binding, item: output/input phage; 10 min, 37 °C; baseline: control phage).
With `Cc1cc(Oc2nc(N3CC[C@@H](c4ccncc4)C3)ncc2F)[nH]n1` the IC50 was 30.9 µM (Placenta cancer cell lines; cell proliferation).

For quick reference, copied from above:
Under “CD71 fluorescence intensity”, `O=C(O)c1ccc(-c2nc(-c3ccccc3Cl)c3sccn23)cc1` is recorded as 1 (K562; erythroid differentiation, flow cytometry; 0.01 mM, 24 h, unit not given; baseline: untreated).
